Results collected from several papers.
Parts stem from different laboratories: compare values within a part only.

Block 1
Target: Fragile X messenger ribonucleoprotein 1, C-terminal low-complexity region (Fmr1, Mus musculus, UniProt P35922)
Method: RNA Bind-n-Seq
Molecule type: RNA
Matrix: in vitro
Tested at: 200 nM
Setting: whole 134-nt RNA, ends assumed
With: 150 mM LiCl
Reference: input library
Direction: higher = stronger binding
All molecules: 7-deaza-guanosine replaces G
Oligonucleotide | log2 enrichment
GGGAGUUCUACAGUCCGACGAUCUCCUGUGCUACACAUCGUAUGUACCGAAUCGGGGAAAAAAAGGGGUUUUUGGGGUGGGGAAAGUAUUAUGUUACGCCGUUCGGAUCUGCAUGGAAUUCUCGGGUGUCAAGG | -0.298
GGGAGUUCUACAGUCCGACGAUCGUCCUGUGCUACACAUCGUAUGUACCGAAUCGGGGUUUGGGGUUUUUGGGGAAAGGGGAAAGUAUUAUGUUACGCCGUUCGGAUCUGCACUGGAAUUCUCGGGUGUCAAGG | -0.0831
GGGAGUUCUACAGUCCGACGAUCUGGGCGGUGGAUUUUGUUUAUUUUUUUAGCUCAUUUCCAGGGGUGGGAAUUUUUUUUUAAUAUGUGUCAUGAAUAAAGUUGUUUUUGAAAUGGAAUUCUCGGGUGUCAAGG | 1.09
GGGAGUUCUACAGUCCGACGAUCCCUCAAGUCCUGUGCUACACAUCGUAUGUACCGAAUCGGUUUGGUGGAAAGGAAAGUAUUAUGUUACGCCGUUCGGAUCUGCACUUCCAGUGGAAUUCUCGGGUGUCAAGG | -0.0267
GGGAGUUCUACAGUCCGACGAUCAAGUCCUGUGCUACACAUCGUAUGUACCGAAUCGGGUUUGGGAAAAAGGGUUUGGGAAAGUAUUAUGUUACGCCGUUCGGAUCUGCACUUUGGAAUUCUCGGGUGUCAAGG | -2.77
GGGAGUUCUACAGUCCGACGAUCUUUCUUCCCCCACAGUUCAUCCAUGAGCUCGGAUUUCCCACAUUACAACUUCAGGAUGCCUAAUAUUGGAUUCCAGAAUCUGCCUCUCAAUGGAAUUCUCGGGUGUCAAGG | 1.89
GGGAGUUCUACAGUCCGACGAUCGCAGGAAGUAAAAACAAAUGGAAAUGCUUCGGAUAGUGGCAGGGGUGGGGGUUAAAAAGGAAAGGGUGGGAUGGGAGUGGGUAAAGAGUUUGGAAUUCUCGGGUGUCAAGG | 1.53
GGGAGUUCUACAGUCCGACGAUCUGGCCCUGGUGGCAUUCGGGGAGGAAGAGGUGGCCUCAUGGAUCGUGGUGGUCCCGGUGGAAUGUUCAGAGGUGGCCGUGGUGGAGACAGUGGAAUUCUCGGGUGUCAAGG | -0.628

Block 2
Target: Replicase polyprotein 1ab, polymerase (rep, Severe acute respiratory syndrome coronavirus 2, UniProt P0DTD1)
Effect on: enzyme activity
Action: inhibitor
Tested at: 20 µM
SMILES | inhibition [%]
COC(=O)[C@@]12OC[C@]34[C@H]([C@@H](O)[C@@H]1O)[C@@]1(C)CC(=O)C(O)=C(C)[C@@H]1C[C@H]3OC(=O)[C@H](OC(=O)/C=C(\C)C(C)C)[C@@H]24 | -4.07
Cc1ccc(/C=C2\CNC/C(=C\c3ccc(C)cc3)C2=O)cc1 | -2.92
Cc1cc(-c2cc(O)ccc2Cl)cc2nnc(Nc3ccc(OCCN4CCCC4)cc3)nc12 | 29.4
Nc1nccc2c1ncn2[C@@H]1O[C@H](CO)[C@@H](O)[C@H]1O | -2.33
C[C@H](O)[C@H](O)[C@H]1CNc2nc(N)[nH]c(=O)c2N1 | -2.23
CC(C)(C)c1cc(C=C(C#N)C#N)cc(Br)c1O | -0.82
O=C(OOC(=O)c1ccccc1)c1ccccc1 | -2.25
C#Cc1cncc([C@@H]2CCCN2C)c1 | -0.75
NCC(CS(=O)(=O)O)c1ccc(Cl)cc1 (centres unmarked) | 3.73
CN(C)CCOC(=O)COc1ccc(Cl)cc1 | -2.66
CN(C)CC(=O)Nc1ccc2[nH]c(=O)c3ccccc3c2c1 | -0.54
CC1(C)S[C@@H]2[C@H](N)C(=O)N2[C@H]1C(=O)O | -0.71
CNCC(=O)O | 2.89
Nc1ncn([C@@H]2O[C@H](CO)[C@@H](O)[C@H]2O)c(=O)n1 | -8.1
CN1CCC(=C2c3ccccc3CCc3sccc32)CC1 | -7.49
CCC[C@H](N[C@@H](C)C(=O)N1[C@H](C(=O)O)C[C@@H]2CCCC[C@@H]21)C(=O)O | -0.64
Cc1ccc(-c2ncc[nH]2)cc1NC(=O)c1ccc(OCc2ccccn2)cc1 | -12.6
CCN(C)C(=O)Oc1cccc([C@H](C)N(C)C)c1 | -5.27
C/C(=C(\CCOP(=O)(O)O)SC(=O)c1ccccc1)N(C=O)Cc1cnc(C)nc1N | -3.76
O=C(O)CCC(=O)OC[C@@H](NC(=O)C(Cl)Cl)[C@H](O)c1ccc([N+](=O)[O-])cc1 | 3.48
O=Cc1cn(Cc2ccc(Cl)cc2)c2ccccc12 | 2.26
CCCCN1CCCC1CNC(=O)c1cc(C#N)c2ccccc2c1OC (centres unmarked) | -4
FC(F)(F)c1cccc(C2=CCN(CCc3ccc4ccccc4c3)CC2)c1 | -3.32
COc1ccc(CCN(C)CCCOc2ccc(S(=O)(=O)c3c(C(C)C)c4ccccc4n3C)cc2)cc1OC | -3.04
CCOc1nc2cccc(C(=O)O)c2n1Cc1ccc(-c2ccccc2-c2noc(=O)[nH]2)cc1 | -1.68

Block 3
Cell line: HEK-293T
Organism: VSV pseudotyped with SARS-CoV-2 spike
Tested at: 10 µM
Time: 16 h
SMILES | pseudovirus infection [%]
O=C1OCCN1/N=C/c1ccc([N+](=O)[O-])o1 | 100
CC(C)NCC(O)COc1cccc2ccccc12 (centres unmarked) | 83
O=C(O)c1cccnc1 | 75.2
Clc1ccc(C(Cn2ccnc2)OCc2ccsc2Cl)c(Cl)c1 (centres unmarked) | 72.2

Block 4
Target: RNA binding protein fox-1 homolog 2, RRM domain, GST-SBP tag (RBFOX2, Homo sapiens, UniProt O43251-10, residues 100-194)
Method: RNA Bind-n-Seq
Molecule type: RNA
Matrix: in vitro
Tested at: 365 nM
Setting: natural RNA segment, single round, ends assumed
Reference: no-protein control
Direction: higher = stronger binding
Residues (chain): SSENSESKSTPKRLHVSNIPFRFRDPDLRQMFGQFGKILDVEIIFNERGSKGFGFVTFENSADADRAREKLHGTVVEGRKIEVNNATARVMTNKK
Oligonucleotide | RBNS enrichment (R)
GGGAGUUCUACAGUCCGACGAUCAUGUAGCUCAUAGUCCCCACAAUGUCCUGGGAAGGAACAGAGGACUGGUACAGUCCCAGCUCUGCUCUGGUGUAUGCGAUUUUUGAAAGACCUGUCUUCUGUGAGCUGUGUGGAAUUCUCGGGUGCCAA | 2.06
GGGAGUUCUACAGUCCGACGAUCCUUAGAAAAGGAGAAAGGAAUUCCUUUUCCCGCCCGAACAUGAAGAAAAAUGACCUGACCCUGUAGAGAGAACACAGUGUGAAUGUUUCCCCUCGUGUGAGCCCAGCCUGUGGAAUUCUCGGGUGCCAA | 0.926
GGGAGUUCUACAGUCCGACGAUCGAAGGUCCACAAAUAGCAGUUCACAUCACAGCCCUGCAGUCCCCUUUUGUAGCUGUGUUUAAGGUCAUUUCCAUCAAUGAUGGGGUCUGCUCCCUCCCUCCCUGUAAGCUUGGAAUUCUCGGGUGCCAA | 0.423
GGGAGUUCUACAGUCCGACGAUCUCUUAAUAUUGUCCAAUGUUUGGUGUUAUCUGCAUUGUUUUUUGUUUUUUUAAUUGUGGUUGUUCUGACGUGUGAAAUUUAAGGAAAGAGCCAUUUUUUAAAAAUGCCGAUGGAAUUCUCGGGUGCCAA | 0.747
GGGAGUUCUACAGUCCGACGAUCUGCAGUUUCUGCCUUUAAGCCAAAGAAACAAGCUGUGCGGACCUGGCCCAUUAAGAGGCCUCAGUGGGAGAAGGGCUAAAAAGAGCCUGAGGUCAUGCGGUUGGACACUGUGGAAUUCUCGGGUGCCAA | 0.678
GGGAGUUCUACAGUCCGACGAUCUGCCAGGGUCCCCUGGGAAGAUGCCCCCAAGACACCUGCCCCAAGUGGGUGGAUAUCUGCCUUCCUGCUGCAAGUGGAGGCAGGUCCAGCAGCCCCUCUUCAGAGCCCCUUGGAAUUCUCGGGUGCCAA | 0.296
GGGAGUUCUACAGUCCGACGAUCUGGAAUUAGCACCUGCCUGUCCUUCCUGGGCCCCUCCUUGCCACAUCAUGAGCUGAGGUGGGACCACAGUCCCCAGGCUGCAUCGGCCUGCCUGUGUUUCCCUCUUAGGUUGGAAUUCUCGGGUGCCAA | 0.443
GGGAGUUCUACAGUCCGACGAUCGGAGUGUGUAAGGUAUAUGUUUUAUAAUUCAUAACCAUAGCCUCGAUCAUCAAGAAAUACUUUCGAAAUUUCAUUUUCCUUCAGAAUAUCUUAAGAGUGCUAAAUUUUUAUGGAAUUCUCGGGUGCCAA | 0.359

Block 5
Target: Replicase polyprotein 1ab, main protease (rep, Severe acute respiratory syndrome coronavirus 2, UniProt P0DTD1)
Effect on: enzyme activity
Action: inhibitor
Tested at: 20 µM
Setting: hit confirmation
SMILES | inhibition [%]
N[C@@H](C(=O)N[C@@H]1C(=O)N2C(C(=O)O)=C(Cl)CS[C@H]12)c1ccccc1 | 74.4
CC[n+]1c(-c2ccccc2)c2cc(N)ccc2c2ccc(N)cc21 | 60.2
Nc1nnc(Sc2ncc([N+](=O)[O-])s2)s1 | 100

Block 6
Target: Sal-like protein 4, full length isoform A (SALL4, Homo sapiens, UniProt Q9UJQ4, residues 1-1053)
UniProt Q9UJQ4, sequence (whole entry, looked up): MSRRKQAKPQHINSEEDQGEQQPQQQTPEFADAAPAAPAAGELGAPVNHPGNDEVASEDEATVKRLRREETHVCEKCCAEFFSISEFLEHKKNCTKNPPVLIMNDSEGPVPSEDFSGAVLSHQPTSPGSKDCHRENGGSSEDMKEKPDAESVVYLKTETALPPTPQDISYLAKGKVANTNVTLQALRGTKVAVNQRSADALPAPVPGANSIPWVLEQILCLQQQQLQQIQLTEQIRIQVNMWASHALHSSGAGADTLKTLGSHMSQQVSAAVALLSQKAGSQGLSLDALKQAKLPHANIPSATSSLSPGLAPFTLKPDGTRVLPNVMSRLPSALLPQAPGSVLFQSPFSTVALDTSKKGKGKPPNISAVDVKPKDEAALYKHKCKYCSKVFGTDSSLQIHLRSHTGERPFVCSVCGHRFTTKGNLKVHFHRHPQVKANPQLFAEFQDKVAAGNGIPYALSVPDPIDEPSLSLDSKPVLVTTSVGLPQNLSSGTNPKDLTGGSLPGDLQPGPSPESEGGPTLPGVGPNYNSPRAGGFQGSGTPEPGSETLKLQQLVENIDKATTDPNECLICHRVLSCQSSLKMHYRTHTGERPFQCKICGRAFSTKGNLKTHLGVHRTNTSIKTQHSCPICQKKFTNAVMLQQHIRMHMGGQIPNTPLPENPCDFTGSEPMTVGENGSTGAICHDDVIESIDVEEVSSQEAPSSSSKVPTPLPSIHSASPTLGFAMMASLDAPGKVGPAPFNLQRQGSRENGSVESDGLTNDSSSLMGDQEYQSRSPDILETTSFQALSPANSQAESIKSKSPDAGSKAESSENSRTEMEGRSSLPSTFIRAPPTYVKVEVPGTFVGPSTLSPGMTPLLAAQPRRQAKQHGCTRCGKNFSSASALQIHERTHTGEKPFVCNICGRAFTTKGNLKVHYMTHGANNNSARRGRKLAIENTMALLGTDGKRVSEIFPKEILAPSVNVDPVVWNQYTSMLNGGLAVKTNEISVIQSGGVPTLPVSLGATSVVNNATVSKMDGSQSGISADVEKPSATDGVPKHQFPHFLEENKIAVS
Method: universal PBM
Molecule type: double-stranded DNA, one strand shown
Matrix: in vitro
Tested at: 600 nM
Setting: 8-mer, flanks averaged, mean of replicates
Direction: higher = stronger binding
Oligonucleotide | E-score
AATAATGA | 0.34
CTCTTAGC | -0.0279
ATCCATAG | 0.0405
CGTACAGC | -0.111
CTAGTAAC | 0.0193
CGGTTCTA | -0.0625
TCCCACCA | -0.191
CTGGCAGC | -0.303

A few entries again (block 2):
SMILES | inhibition [%]
C[C@H](O)[C@H](O)[C@H]1CNc2nc(N)[nH]c(=O)c2N1 | -2.23
CCN(C)C(=O)Oc1cccc([C@H](C)N(C)C)c1 | -5.27
CCCCN1CCCC1CNC(=O)c1cc(C#N)c2ccccc2c1OC (centres unmarked) | -4
C#Cc1cncc([C@@H]2CCCN2C)c1 | -0.75
O=C(O)CCC(=O)OC[C@@H](NC(=O)C(Cl)Cl)[C@H](O)c1ccc([N+](=O)[O-])cc1 | 3.48
NCC(CS(=O)(=O)O)c1ccc(Cl)cc1 (centres unmarked) | 3.73
COC(=O)[C@@]12OC[C@]34[C@H]([C@@H](O)[C@@H]1O)[C@@]1(C)CC(=O)C(O)=C(C)[C@@H]1C[C@H]3OC(=O)[C@H](OC(=O)/C=C(\C)C(C)C)[C@@H]24 | -4.07
CCC[C@H](N[C@@H](C)C(=O)N1[C@H](C(=O)O)C[C@@H]2CCCC[C@@H]21)C(=O)O | -0.64
CN(C)CCOC(=O)COc1ccc(Cl)cc1 | -2.66
